Measurements from different studies.
Lines come from different studies, so protocols differ. “And” joins repeats or separate records; there may be more than shown. ± gives the spread as reported.
FFAR4: Free fatty acid receptor 4 (FFAR4, Homo sapiens, UniProt Q5NUL3)
GAP50: Glideosome-associated protein 50 (GAP50, Plasmodium falciparum, UniProt Q8I2X3)
Kir3.1/Kir3.2: Kir3.1/Kir3.2 (Homo sapiens, UniProt P48051+P48549)
PDE1C isoform PDE1C2: Dual specificity calcium/calmodulin-dependent 3',5'-cyclic nucleotide phosphodiesterase 1C, isoform PDE1C2 (PDE1C, Homo sapiens, UniProt Q14123)
TRPM8: Transient receptor potential cation channel subfamily M member 8 (TRPM8, Homo sapiens, UniProt Q7Z2W7)
TOP2A: DNA topoisomerase 2-alpha (TOP2A, Homo sapiens, UniProt P11388)
NADH dehydrogenase [ubiquinone] iron-sulfur protein 7, mitochondrial/NADH dehydrogenase [ubiquinone] iron-sulfur protein 2, mitochondrial/MT-ND1: NADH dehydrogenase [ubiquinone] iron-sulfur protein 7, mitochondrial/NADH dehydrogenase [ubiquinone] iron-sulfur protein 2, mitochondrial/MT-ND1 (Homo sapiens, UniProt O75251+O75306+P03886)

SMILES	target	assay	test system	conditions	scale	measurement	result
CCS(=O)(=O)N1CC(CC#N)(n2cc(-c3ncnc4[nH]ccc34)cn2)C1	ORM1 (Homo sapiens, UniProt P02763)	FRET	–	–	–	Förster distance	2.3 nm
CCc1oc2c([C@H](CO)N(CC)CC)cccc2c1C	FFAR4	agonist, NanoBiT G-protein dissociation	–	concentration not given	–	activity	no effect
CCOc1ccccc1C(=O)Nc1noc2ccccc12	3-oxoacyl-[acyl-carrier-protein] reductase FabG (fabG, Pseudomonas aeruginosa, UniProt O54438)	enzyme activity, inhibitor, NADPH fluorescence	–	reverse reaction, added: 3-OH-decanoyl-NAC, NADP	–	Hill slope	1.8
Cc1ccc(C(=O)Nc2ccc3ccccc3c2)o1	Otop1 (Mus musculus, UniProt Q80VM9)	ion current, whole-cell voltage ramp	–	10 µM, added: Na+ bath solution	–	reversal potential	54 mV and 50.4 mV and 65 mV and 54.6 mV and 55.8 mV and 60.3 mV
O[C@@H](c1cc(C(F)(F)F)nc2c(C(F)(F)F)cccc12)[C@H]1CCCCN1	GAP50	binding, surface plasmon resonance	–	1:1 binding model	–	kon	11000 M⁻¹ s⁻¹
Cc1cc(NC(=O)C2CCc3ccccc3O2)n(C2CCS(=O)(=O)C2)n1 (centres unmarked)	Kir3.1/Kir3.2	thallium flux, activator	HEK293	–	baseline: standard compound	Emax	45%
Cc1cc(Nc2cc(N3CCN(C)CC3)nc(Sc3ccc(NC(=O)C4CC4)cc3)n2)[nH]n1	ROCK1 (Homo sapiens, UniProt Q13464)	kinase activity, KinaseProfiler	–	0.03 µM, species human	baseline: control	remaining activity	122%
N=C(NO)NCC[C@H](N)C(=O)O	Arginase (Schistosoma mansoni, UniProt Q6WVP6)	isothermal titration calorimetry	–	concentration not given	–	binding stoichiometry	0.85 ± 0.01
Cc1[nH]c(N)nc1CCC(=O)c1cc(F)cc(F)c1.Cl	HVCN1 (Homo sapiens, UniProt Q96D96)	proton current, inhibitor, inside-out patch clamp	Xenopus oocytes	dimeric channel	–	Hill coefficient	1.16 ± 0.1
C=CC(=O)N1CCC(C(=O)NCC(=O)N2CCN(c3nc(-c4cnc(N)nc4C(F)F)nc(N4CCOCC4)n3)CC2)CC1	PAK2 (Homo sapiens, UniProt Q13177)	KINOMEscan	–	1 µM	–	remaining binding	100%
Nc1ccc(C(=O)O)cc1	BEST1, with wild-type BEST1 (Homo sapiens, UniProt O76090, A10T)	whole-cell patch clamp	HEK293 co-expressing WT and A10T mutant	concentration not given, membrane potential -60 mV	–	current density	-18.1 pA/pF and -12.5 pA/pF and -8.44 pA/pF and -5.77 pA/pF and -16.8 pA/pF and -29.5 pA/pF
O=c1cc(NCCc2ccccc2Cl)[nH]c(=O)[nH]1	FFAR4	agonist, β-arrestin recruitment	CHO cells	10 µM	–	activation	1 ± 1%
COc1cccc2c(Nc3ccc4[nH]c(C(=O)N/N=C/c5ccc(SC)cc5)cc4c3)cc(C)nc12	Nuclear receptor subfamily 4 group A member 2, LBD (Homo sapiens, UniProt P43354)	reporter gene, Gal4 hybrid reporter	–	3 µM	baseline: vehicle	activation	0.59 fold
CNc1nnc(Sc2cnn(-c3ccccc3)c(=O)c2Cl)s1	GAP50	binding, surface plasmon resonance	–	1:1 binding model	–	koff	0.165 s⁻¹
CCCCCCCNc1cc(=O)[nH]c(=O)[nH]1	FFAR4	agonist, β-arrestin recruitment	CHO cells	10 µM	–	activation	0%
O=C(COc1cc(Cl)ccc1Cl)Nc1cc(C2CCC2)nn1C1CCOCC1	Kir3.1/Kir3.2	thallium flux, activator	HEK293	–	baseline: standard compound	Emax	58%
Cc1cc2c(c(=O)[nH]1)C(=O)O/C2=C\c1cc(F)ccc1OCCN1CCOCC1	PDE1C isoform PDE1C2	enzyme activity, inhibitor	–	added: 3H-cGMP substrate	–	binding free energy	-10.2 kcal/mol
CNC(=O)[C@@]12C[C@@H]1[C@@H](n1cnc3c(NCCc4ccc(O)c(O)c4)nc(C#Cc4ccc(Cl)s4)nc31)[C@H](O)[C@@H]2O	Adenosine receptor A3 (Mus musculus, UniProt Q61618)	radioligand binding	HEK293 membranes	–	baseline: mouse A3 over human A3 affinity	selectivity ratio	23 to 25 fold
Cc1ccccc1C(=O)NCc1ccc(CNS(=O)(=O)c2ccccc2)cc1	CXCR4 (Homo sapiens, UniProt P61073)	binding, inhibitor, competitive binding	MDA-MB-231	added: biotinylated TN14003	–	EC	1 nM
COc1cc2c(cc1OC)-c1[nH]nc(Nc3cccc(F)c3)c1C2	TRPM8	antagonist	HEK293	5 µM	baseline: control	remaining activity	98.8 ± 5.16%
O=C(COc1ccc(C(F)(F)F)cc1C(F)(F)F)Nc1cc(C2CC2)nn1C1CCC(F)(F)CC1	Kir3.1/Kir3.2	thallium flux, activator	HEK293	–	baseline: standard compound	Emax	39%
O=C1Nc2ccc(Br)cc2/C1=C/c1cc2c([nH]1)CCCC2	TRPM8	antagonist	HEK293	5 µM	baseline: control	remaining activity	100 ± 11.3%
O=c1nc(SCc2cc(F)cc(C(F)(F)F)c2)nc(SCc2ccc3nc(Cl)ccc3c2)[nH]1	TOP2A	DNA cleavage, competition with etoposide	–	7.8 µM, added: etoposide 50 µM	–	linear DNA	17% and 16.7%
CC[C@@H]1[C@H](F)C(=O)N[C@@H]1COc1nccc2cc(C(N)=O)c(OC)cc12	CDK9 (Homo sapiens, UniProt P50750)	ATP-site probe binding, ActivX profiling	THP-1 cell lysate	0.01 mM, Lys2 site	–	inhibition	16.2%
NCc1ccc(Br)cc1	Maoa (Rattus norvegicus, UniProt P21396)	substrate	rat	pH 9.0, α,α-protio substrate	–	kcat	2.85 ± 0.0233 s⁻¹
C=CC(=O)N1CCC(COCC(=O)N2CCN(c3nc(-c4cnc(N)nc4C(F)F)nc(N4CCOC[C@@H]4C)n3)CC2)CC1	MYLK2 (Homo sapiens, UniProt Q9H1R3)	KINOMEscan	–	1 µM	–	remaining binding	100%
Nc1ncc2c(n1)-c1c([nH]c3ccc(-c4ccc(F)cc4)cc13)CCC2	MYLK4 (Homo sapiens, UniProt Q86YV6)	DiscoverX scanMAX	–	1 µM	baseline: untreated control	remaining binding	14%

SMILES	target	assay	test system	conditions	scale	measurement	result
CCc1nc2ccccc2n1C[C@H](O)COc1cc(C)ccc1Cl	GAP50	binding, surface plasmon resonance	–	1:1 binding model	–	koff	1.15 s⁻¹
CCCCCCCCNc1cc(=O)[nH]c(=O)[nH]1	FFAR4	antagonist, β-arrestin recruitment	CHO cells	10 µM, added: 4 µM TUG-891	–	inhibition	22 ± 9%
O=C(NC1CCC1)c1ccc2nc(-c3cccc(NS(=O)(=O)NCCN4CCCCC4)c3)cn2c1	Protein ENL (MLLT1, Homo sapiens, UniProt Q03111)	degrader, immunoblot, item: MLLT1	–	10 µM, 72 h	baseline: DMSO control	protein level	83%
O=C(COP(=O)(O)O)[C@@H](O)[C@H](O)[C@H](O)COP(=O)(O)O	PGM1 (Homo sapiens, UniProt P36871)	thermal proteome profiling	HepG2 cell lysate	concentration not given, 57 over 37 °C	baseline: compound over control	thermal stability ratio	5.92 and 3.85 and 3.09
CC(C)CNc1cc(=O)[nH]c(=O)[nH]1	FFAR4	β-arrestin recruitment	CHO	10 µM	baseline: 30 µM TUG-891	agonist effect	2 ± 1%
COc1ccc(F)cc1C(=O)NCc1ccc(-c2nn([C@@H](C)C(F)(F)F)c(N)c2C(N)=O)cc1	BTK (Homo sapiens, UniProt Q06187)	surface plasmon resonance	–	–	–	dissociation half-life	2.4 h
O=c1cc(-c2cccc3c2Sc2ccccc2S3)oc(N2CCOCC2)c1	TRPM8	antagonist	HEK293	5 µM	baseline: control	remaining activity	85.9 ± 8.3%
O=c1cc(NCc2ccccc2)[nH]c(=O)[nH]1	FFAR4	agonist, β-arrestin recruitment	CHO cells	10 µM	baseline: 30 µM TUG-891	agonist effect	0%
NC(=O)NOCCCCCCCCCCCC[P+](c1ccccc1)(c1ccccc1)c1ccccc1.O=C([O-])C(F)(F)F	NADH dehydrogenase [ubiquinone] iron-sulfur protein 7, mitochondrial/NADH dehydrogenase [ubiquinone] iron-sulfur protein 2, mitochondrial/MT-ND1	complex I-dependent respiration, Seahorse XF96	HCT-116	5 µM, 24 h	baseline: control	oxygen consumption rate	1.55 ± 5.5%
O=C(O)CCc1c[nH]c2ccccc12	Germin-like protein subfamily 3 member 1 (GLP1, Arabidopsis thaliana, UniProt P94040)	microscale thermophoresis	Arabidopsis protoplast extract	concentration not given	–	binding	no binding
c1coc(CNc2nc(N3CCCCC3)nc3ccccc23)c1	GAP50	binding, surface plasmon resonance	–	1:1 binding model	–	kon	38800 M⁻¹ s⁻¹
O=C1NC(=O)/C(=C/c2ccc(OCCNc3nc4c(cnn4C4CCCC4)c(=O)[nH]3)c(F)c2)S1	PDE8A (Homo sapiens, UniProt O60658)	–	–	–	baseline: PDE8A over PDE9	selectivity ratio	181 fold
O=c1[nH]c(NCCc2ccc(Br)cc2)c(Br)c(=O)[nH]1	FFAR4	agonist, β-arrestin recruitment	CHO cells	10 µM	–	activation	0%
Nc1nc2c(ncn2[C@@H]2O[C@H](COP(=O)(O)O)[C@@H](O)[C@H]2O)c(=O)[nH]1	GUK1 (Homo sapiens, UniProt Q16774, R44A)	enzyme activity, NADH-coupled	–	500 µM	–	reaction rate	-0.394 s⁻¹ and -1.89 s⁻¹
NC(=O)NOCCCCCCCCCC[P+](c1ccccc1)(c1ccccc1)c1ccccc1.O=C([O-])C(F)(F)F	NADH dehydrogenase [ubiquinone] iron-sulfur protein 7, mitochondrial/NADH dehydrogenase [ubiquinone] iron-sulfur protein 2, mitochondrial/MT-ND1	complex I-dependent respiration, Seahorse XF96	HCT-116	50 µM, 24 h	baseline: control	oxygen consumption rate	2.72 ± 3.4%
COc1c(Nc2cc(C(F)(F)F)cc(C(F)(F)F)c2)c(=O)c1=O	CD209 antigen (CD209, Homo sapiens, UniProt Q9NNX6)	covalent labelling, intact protein MS	–	50 µM	–	kobs	0.00128 min⁻¹
Nc1ncnc2c1ncn2[C@@H]1O[C@H](COP(=O)(O)CP(=O)(O)OP(=O)(O)O)[C@@H](O)[C@H]1O	P2X purinoceptor 1 (P2RX1, Homo sapiens, UniProt P51575, D170A)	calcium influx	–	10 nM	baseline: ionomycin response	calcium influx	1.99%
O=c1nc(SCc2ccc(C(F)(F)F)cc2)nc(SCc2csc3ccc(Cl)cc23)[nH]1	TOP2A	decatenation	–	1.95 µM, replicate 2	–	decatenated DNA	0%
C[C@@H]1C(=O)O[C@H]2C[C@@]34[C@H]5C[C@@H](C(C)(C)C)[C@]36[C@@H](OC(=O)[C@@H]6O)O[C@@]4(C(=O)O5)[C@]21O	Rdl (Drosophila melanogaster, UniProt P25123)	ion current, inhibitor, two-electrode voltage clamp	–	IC50, added: GABA at EC50	–	time constant of onset	5.2 ± 0.6 s
NCCCS(=O)(=O)O	SLC6A6 (Homo sapiens, UniProt P31641, Y138A)	binding, microscale thermophoresis	–	244 nM, room temperature, added: 50 nM labelled protein	higher = more binding	normalised MST signal	-0.0204
CCCCCCNc1[nH]c(=O)[nH]c(=O)c1N=O	FFAR4	agonist, β-arrestin recruitment	CHO cells	10 µM	baseline: 30 µM TUG-891	agonist effect	1 ± 1%
C#CCNCCCN1CCN(CCCNC(=O)c2ccc(C(=O)c3ccc([N+](=O)[O-])cc3)cc2)CC1	TMEM97 (Homo sapiens, UniProt Q5BJF2)	radioligand binding	RT-4 cell membranes	–	baseline: sigma1 Ki over sigma2 Ki	Ki ratio	7.39
NC(=O)NOCCCCCCCCCCCCCCCCCCCC[P+](c1ccccc1)(c1ccccc1)c1ccccc1.O=C([O-])C(F)(F)F	NADH dehydrogenase [ubiquinone] iron-sulfur protein 7, mitochondrial/NADH dehydrogenase [ubiquinone] iron-sulfur protein 2, mitochondrial/MT-ND1	complex I-dependent respiration, Seahorse XF96	HCT-116	0.3 µM, 24 h	baseline: control	oxygen consumption rate	90.5 ± 3.66%
Cc1cc2c(c(=O)[nH]1)C(=O)O/C2=C\c1cc(F)ccc1OC(C)C	PDE1C isoform PDE1C2	enzyme activity, inhibitor	–	added: 3H-cGMP substrate	–	binding free energy	-10.6 kcal/mol
CCCCCCCCNc1cc(=O)n(C)c(=O)n1C	FFAR4	antagonist, β-arrestin recruitment	CHO cells	10 µM, added: 4 µM TUG-891	–	inhibition	30 ± 3%
Nc1ncnc2c1ncn2[C@@H]1O[C@H](COP(=O)(O)OP(=O)(O)OP(=O)(O)O)[C@@H](O)[C@H]1O	CKMT1A (Homo sapiens, UniProt P12532, E265D)	substrate, ADP-Glo luminescence	–	pH 8.5, forward reaction, E227D mutant, added: second substrate in excess	–	Km	80 ± 10 µM

A few entries again:
SMILES	target	assay	test system	conditions	scale	measurement	result
O=C(COP(=O)(O)O)[C@@H](O)[C@H](O)[C@H](O)COP(=O)(O)O	PGM1 (Homo sapiens, UniProt P36871)	thermal proteome profiling	HepG2 cell lysate	concentration not given, 57 over 37 °C	baseline: compound over control	thermal stability ratio	5.92 and 3.85 and 3.09
CC(C)CNc1cc(=O)[nH]c(=O)[nH]1	FFAR4	β-arrestin recruitment	CHO	10 µM	baseline: 30 µM TUG-891	agonist effect	2 ± 1%
COc1ccc(F)cc1C(=O)NCc1ccc(-c2nn([C@@H](C)C(F)(F)F)c(N)c2C(N)=O)cc1	BTK (Homo sapiens, UniProt Q06187)	surface plasmon resonance	–	–	–	dissociation half-life	2.4 h
O=c1cc(-c2cccc3c2Sc2ccccc2S3)oc(N2CCOCC2)c1	TRPM8	antagonist	HEK293	5 µM	baseline: control	remaining activity	85.9 ± 8.3%
O=c1cc(NCc2ccccc2)[nH]c(=O)[nH]1	FFAR4	agonist, β-arrestin recruitment	CHO cells	10 µM	baseline: 30 µM TUG-891	agonist effect	0%
NC(=O)NOCCCCCCCCCCCC[P+](c1ccccc1)(c1ccccc1)c1ccccc1.O=C([O-])C(F)(F)F	NADH dehydrogenase [ubiquinone] iron-sulfur protein 7, mitochondrial/NADH dehydrogenase [ubiquinone] iron-sulfur protein 2, mitochondrial/MT-ND1	complex I-dependent respiration, Seahorse XF96	HCT-116	5 µM, 24 h	baseline: control	oxygen consumption rate	1.55 ± 5.5%
O=C(O)CCc1c[nH]c2ccccc12	Germin-like protein subfamily 3 member 1 (GLP1, Arabidopsis thaliana, UniProt P94040)	microscale thermophoresis	Arabidopsis protoplast extract	concentration not given	–	binding	no binding
c1coc(CNc2nc(N3CCCCC3)nc3ccccc23)c1	GAP50	binding, surface plasmon resonance	–	1:1 binding model	–	kon	38800 M⁻¹ s⁻¹
